Measured values collected from several papers.
Numbers after ± are the reported error.

SMILES	assay	system	setting	how to read	endpoint	value
COCCOCCOCCOCCOCCOCCOCCOCCOCCOCCOCCOCCOCCOCCOCCOCCOCCOCCOCCOCCOCCOCCNC(=O)CCC1(Cc2ccccc2)c2ccccc2-c2ccc(-c3sc(-c4c5c(c(-c6sc(-c7ccc8c(c7)C(CCC(=O)NCCOCCOCCOCCOCCOCCOCCOCCOCCOCCOCCOCCOCCOCCOCCOCCOCCOCCOCCOCCOCCOCCOC)(Cc7ccccc7)c7ccccc7-8)c7c6OCCO7)c6nsnc46)N=S=N5)c4c3OCCO4)cc21 (stereo not shown)	ex vivo NIR-II imaging	mouse, bile duct ligation	iv, 15 mg/kg, 6 h, day 1	–	intestine to liver ratio	~0.5
Cc1nc(C)c(C=[N+]([O-])C(C)(C)C)nc1C	immunofluorescence, measured: 4-HNE	MPTP mouse model, substantia nigra	30 mg/kg	reference: sham	fluorescence intensity	295 ± 16.4%
CC(=O)[O-].O.[Cu+2].[O-]c1ccc(Br)cc1C=NCCN1CCOCC1	nitric oxide scavenging	–	240 µM	–	inhibition	64.2%
O=c1c(OCc2ccccc2)c(-c2cccc([N+](=O)[O-])c2)oc2ccccc12	–	diabetic rat	7.5 mg/kg, day 1, p-nitrophenyl β-glucoside induced	–	blood glucose	401 ± 4.89 mg/dL
O=[N+]([O-])c1ccc2[nH]c(-c3ccco3)nc2c1	ABTS scavenging, absorbance	–	–	–	IC50	1.59 µM
Cc1cccc(O[C@H]2CCC[C@@H](C(C)CNCc3ccncc3)C2)c1 (relative stereo)	–	APP/PS1 mouse	dose not given, chronic treatment	–	plasma TNFα level	decreased
CC[C@@H](C)N([11CH3])C(=O)c1nc(-c2ccc(Cl)cc2)c2ccccc2n1	PET from VT/fP	rhesus monkey, cerebellum	dose not given	–	TSPO specific binding	89%
COc1ccc2c(c1)c(CC(=O)OCC(=O)c1ccccc1)c(C)n2C(=O)c1ccc(Cl)cc1	hot plate test	BALB/c mice	75 mg/kg, 0 min	–	latency of nociceptive response	9.64 ± 0.66 s
COC(=O)C=CCCC(NC(=O)c1ccncc1C(=O)O)C(=O)NC(C(=O)N1CC(=O)CC1C(=O)NC(C(=O)NC(C(N)=O)C1CCCCC1)C1CCCCC1)C(C)(C)C (stereo not shown)	–	New Zealand White rabbit	dose not given, venous stasis	–	thrombus length	11 ± 1 mm
CCOP(=O)(CC(=O)Nc1ccc(S(=O)(=O)N(CC(N)=O)c2ccc(N(CC(N)=O)S(=O)(=O)c3ccc(OC)cc3)c3ccccc23)cc1)OCC	Western blot	APP/PS1 mice, hippocampus and frontal cortex	40 mg/kg	–	total Nrf2 protein level	increased
CC(C)CN(CC(C)C)C(=O)/C=C/C=C/c1ccc2c(c1)OCO2	open field	C57BL/6N mice	ip, 30 mg/kg, 30 min before test, 10 min test	–	total distance travelled	28.6 ± 2.5 m
O=C1c2c(O)cc3oc4cc(O)c(O)cc4c3c2OC1Cc1ccccc1 (stereo not shown)	DPPH scavenging, absorbance	–	–	–	EC50	130 µM
CSCC[C@@H]1NC(=O)[C@H](CCCCN)NC(=O)[C@H]([C@@H](C)O)NC(=O)[C@H](CCCCN)NC(=O)[C@H](CC(C)C)NC(=O)[C@H](CCCCN)NC(=O)[C@H](CCCNC(=N)N)NC(=O)[C@@H]2CSSC[C@@H]3NC(=O)[C@@H]4CCCN4C(=O)[C@H](C(C)C)NC(=O)[C@H](CCC(N)=O)NC(=O)[C@H](CCC(N)=O)NC(=O)CNC(=O)[C@H](CC(C)C)NC(=O)[C@@H]4CSSC[C@H](NC(=O)[C@H]([C@@H](C)O)NC(=O)[C@H](C)NC(=O)[C@H](CSSC[C@@H](C(=O)N[C@@H](CO)C(=O)N[C@@H](CCCNC(=N)N)C(=O)N[C@H](C(N)=O)[C@@H](C)O)NC(=O)[C@@H]5CCCN5C(=O)[C@H](CC(N)=O)NC1=O)NC(=O)[C@@H]1CCCN1C(=O)[C@H](CC(=O)O)NC(=O)[C@H](CSSC[C@H](NC(=O)[C@H](CCCNC(=N)N)NC(=O)[C@H](CCCNC(=N)N)NC(=O)[C@H](CO)NC(=O)[C@@H](N)CO)C(=O)N[C@@H](C(C)C)C(=O)N[C@@H](CCCNC(=N)N)C(=O)N[C@@H](CC(C)C)C(=O)N[C@@H](Cc1c[nH]cn1)C(=O)N[C@@H](CCC(=O)O)C(=O)N[C@@H](CO)C(=O)N4)NC3=O)C(=O)N[C@@H](Cc1ccc(O)cc1)C(=O)N[C@H]1CSSC[C@H](NC(=O)[C@H](Cc3ccccc3)NC(=O)[C@H](C)NC(=O)[C@H](CC(N)=O)NC(=O)[C@H](Cc3ccccc3)NC(=O)[C@H](Cc3ccccc3)NC(=O)[C@H](CCCNC(=N)N)NC1=O)C(=O)N[C@@H](Cc1ccc(O)cc1)C(=O)N2	–	male Long-Evans rats	intracerebroventricular, 1.0 nmol, day 5	reference: saline	food intake	44.5 ± 3.1 % above saline
CC(C)(O)c1ccc(N2Cc3c(ccnc3-c3ccc(F)cc3OCC(F)(F)F)C2=O)cc1	measured: GM2, GM1	Gba D409V knock-in mouse, Gaucher model, cerebral cortex	10 or 30 mg/kg, 2 months	–	ganglioside level	decreased
O=c1c(OCc2ccccc2)c(-c2ccc([N+](=O)[O-])cc2)oc2ccccc12	–	diabetic rat	7.5 mg/kg, day 28, p-nitrophenyl β-glucoside induced	–	blood glucose	161 ± 4.41 mg/dL
S=c1n(CN2CCN(c3ccccn3)CC2)nc(C23CC4CC(CC(C4)C2)C3)n1-c1ccccc1	paw oedema	rat	intraperitoneal, 20 mg/kg	–	inhibition in vivo	33.5%
CC[C@H]1[C@@H](O)[C@@H]2[C@H](CC[C@]3(C)[C@@H]([C@H](C)CCOS(=O)(=O)[O-])CC[C@@H]23)[C@@]2(C)CC[C@@H](O)C[C@@H]12.[Na+]	immunohistochemistry, measured: collagen 1a1	ob/ob NASH mouse model, liver	3.0 mg/kg, 16 weeks	–	fractional area	8.5 ± 0.6%
Cc1cc2nc(-c3cc4ccccc4nc3Cl)[nH]c2cc1C	–	mouse HepG2 xenograft	20 mg/kg, day 41	–	T/C tumor increment	19.5%
COc1cccc(OCCN2CCC[C@H](CN3CCc4cc(OC)c(OC)cc4CC3=O)C2)c1	open field test	male and female C57BL/6J mice	intraperitoneal, 5 mg/kg	reference: saline	locomotion velocity and distance	no effect

SMILES	assay	system	setting	how to read	endpoint	value
COc1cc(CN2CCN(c3ccccc3Cl)CC2)c2cc3[n+](cc2c1O)CCc1cc2c(cc1-3)OCO2	ABTS scavenging, absorbance	–	10 min	–	IC50	6.33 µg/mL
C[C@@H](O)[C@@H]1NC(=O)[C@H](CCCCN)NC(=O)[C@@H](Cc2ccc(NC(N)=O)cc2)NC(=O)[C@H](Cc2ccc(NC(=O)[C@@H]3CC(=O)NC(=O)N3)cc2)NC(=O)[C@H](NC(=O)[C@H](Cc2ccc(Cl)cc2)NC(=O)CN2CCN(CC(=O)O)CCN(CC(=O)O)CCN(CC(=O)O)CC2)CSSC[C@@H](C(=O)N[C@H](Cc2ccc(O)cc2)C(N)=O)NC1=O [gallium-68 labelled]	PET/CT	human neuroendocrine tumour patients, liver lesions	60 min	–	SUVpeak	21 ± 19
O=C1c2c(cc(O)c3c2oc2cc(O)c(O)cc23)OC1Cc1ccc(O)c(O)c1 (stereo not shown)	DPPH scavenging, absorbance	–	–	–	EC50	670 µM
COc1ccc(C2CC(c3ccc(C)cc3)=Nc3ccccc3S2)cc1OC (stereo not shown)	–	Wistar rat, STZ-induced diabetes, serum	20 mg/kg, 28 days	–	triglycerides	112 mg/dL
O=c1c(OCc2ccccc2)c(-c2ccc(Cl)cc2)oc2ccccc12	–	diabetic rat	5 mg/kg, day 28, p-nitrophenyl β-glucoside induced	–	blood glucose	136 ± 4.51 mg/dL
CCCOC(=O)Cc1c(C)n(C(=O)c2ccc(Cl)cc2)c2ccc(OC)cc12	hot plate test	BALB/c mice	100 mg/kg, 30 min	–	latency of nociceptive response	17.4 ± 0.86 s
COc1ccc(-c2oc3ccccc3c(=O)c2OCc2ccccc2)cc1	–	diabetic rat	7.5 mg/kg, day 7, p-nitrophenyl β-glucoside induced	–	blood glucose	310 ± 5.1 mg/dL
Fc1ccc(CSc2nnc(C34CC5CC(CC(C5)C3)C4)n2-c2ccccc2)cc1	paw oedema	rat	intraperitoneal, 20 mg/kg	–	inhibition in vivo	17.4%
COc1c2c(cc3oc(COC4OC(CO)C(O)C(O)C4O)cc(=O)c13)OC(C(C)(C)O)C2 (stereo not shown)	analgesia	mouse	oral, 4 mg/kg, 1.5 h	–	hot plate latency	12.2 ± 1.28 s
CC(C)(O)c1ncc([S@](N)(=O)=NC(=O)Nc2c3c(cc4c2CCC4)CCC3)s1	IL-1β release, Bayesian PK/PD model	healthy humans, whole blood ex vivo	Emax estimated, added: LPS	–	Hill coefficient	0.758
NS(=O)(=O)NCCc1ccccc1F	MES seizures	mouse	intraperitoneal	–	ED50	45 mg/kg
Cc1cc(N)c2cc(NC(=O)C(=O)Nc3ccc4nc(C)cc(N)c4c3)ccc2n1	fondaparinux neutralization	mouse	intravenous, 16 mg/kg, 5 min, added: fondaparinux 0.5 mg/kg s.c.	–	plasma fondaparinux concentration	0.14 ± 0.06 mg/L
CN(C)c1ccc(-c2oc3ccccc3c(=O)c2OCc2ccccc2)cc1	–	diabetic rat	7.5 mg/kg, day 28, p-nitrophenyl β-glucoside induced	–	blood glucose	141 ± 4.9 mg/dL
COc1cc2c(cc1OC)-c1cc3ccc(OC)c(OC)c3c[n+]1CC2	–	rat, STZ-induced diabetic, serum	oral, 12 mg/kg, day 28	–	urea	46.1 ± 1.8 mg/dL
Cc1cc2c(cc1C1(c3ncc(C(=O)O)cn3)CC1)C(C)(C)CCC2(C)C	RNA sequencing, measured: Aurkb mRNA	rat, brain	dose not given, 24 h, single dose	reference: vehicle	log2 fold change	0.25
Cc1ccc(-c2oc3ccccc3c(=O)c2OCc2ccccc2)cc1	–	diabetic rat	7.5 mg/kg, day 21, p-nitrophenyl β-glucoside induced	–	blood glucose	189 ± 5 mg/dL
COc1ccc(C2CC(c3ccc(C)cc3)=Nc3ccccc3S2)cc1 (stereo not shown)	–	Wistar rat, STZ-induced diabetes, serum	20 mg/kg, 28 days	–	alkaline phosphatase	198 IU/L
CCc1nc(-c2ccc(-c3ccc(CCC(N)(CO)CO)cc3)cc2)co1	western blot	BALB/c mouse, imiquimod psoriasis model, skin lesion	dose not given	–	CD3 protein level	decreased

For quick reference, copied from above:
SMILES	assay	system	setting	how to read	endpoint	value
COc1ccc2c(c1)c(CC(=O)OCC(=O)c1ccccc1)c(C)n2C(=O)c1ccc(Cl)cc1	hot plate test	BALB/c mice	75 mg/kg, 0 min	–	latency of nociceptive response	9.64 ± 0.66 s
COC(=O)C=CCCC(NC(=O)c1ccncc1C(=O)O)C(=O)NC(C(=O)N1CC(=O)CC1C(=O)NC(C(=O)NC(C(N)=O)C1CCCCC1)C1CCCCC1)C(C)(C)C (stereo not shown)	–	New Zealand White rabbit	dose not given, venous stasis	–	thrombus length	11 ± 1 mm
CCOP(=O)(CC(=O)Nc1ccc(S(=O)(=O)N(CC(N)=O)c2ccc(N(CC(N)=O)S(=O)(=O)c3ccc(OC)cc3)c3ccccc23)cc1)OCC	Western blot	APP/PS1 mice, hippocampus and frontal cortex	40 mg/kg	–	total Nrf2 protein level	increased
CC(C)CN(CC(C)C)C(=O)/C=C/C=C/c1ccc2c(c1)OCO2	open field	C57BL/6N mice	ip, 30 mg/kg, 30 min before test, 10 min test	–	total distance travelled	28.6 ± 2.5 m
O=C1c2c(O)cc3oc4cc(O)c(O)cc4c3c2OC1Cc1ccccc1 (stereo not shown)	DPPH scavenging, absorbance	–	–	–	EC50	130 µM
